Measured values pooled from the literature.
Compare with care: the assays were run in different laboratories. ± marks the error that the study gave.
ESR2: Estrogen receptor beta (ESR2, Homo sapiens, UniProt Q92731)
Sequence of UniProt Q92731 (whole entry, looked up): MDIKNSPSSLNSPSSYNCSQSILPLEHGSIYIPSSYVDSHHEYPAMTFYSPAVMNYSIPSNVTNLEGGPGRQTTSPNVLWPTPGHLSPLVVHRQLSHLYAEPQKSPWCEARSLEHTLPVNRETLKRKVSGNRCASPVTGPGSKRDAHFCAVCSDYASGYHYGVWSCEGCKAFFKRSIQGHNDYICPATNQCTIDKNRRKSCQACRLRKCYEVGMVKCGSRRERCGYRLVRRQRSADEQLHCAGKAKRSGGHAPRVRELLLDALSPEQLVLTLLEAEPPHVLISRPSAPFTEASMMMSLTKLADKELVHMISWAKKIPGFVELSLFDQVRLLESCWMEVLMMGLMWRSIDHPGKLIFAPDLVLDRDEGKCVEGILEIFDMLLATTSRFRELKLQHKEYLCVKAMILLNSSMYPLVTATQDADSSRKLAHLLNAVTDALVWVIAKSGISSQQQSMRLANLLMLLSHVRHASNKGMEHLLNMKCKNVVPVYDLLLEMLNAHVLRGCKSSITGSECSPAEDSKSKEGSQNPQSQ
GPR84: G-protein coupled receptor 84 (GPR84, Homo sapiens, UniProt Q9NQS5)
Sequence of UniProt Q9NQS5 (whole entry, looked up): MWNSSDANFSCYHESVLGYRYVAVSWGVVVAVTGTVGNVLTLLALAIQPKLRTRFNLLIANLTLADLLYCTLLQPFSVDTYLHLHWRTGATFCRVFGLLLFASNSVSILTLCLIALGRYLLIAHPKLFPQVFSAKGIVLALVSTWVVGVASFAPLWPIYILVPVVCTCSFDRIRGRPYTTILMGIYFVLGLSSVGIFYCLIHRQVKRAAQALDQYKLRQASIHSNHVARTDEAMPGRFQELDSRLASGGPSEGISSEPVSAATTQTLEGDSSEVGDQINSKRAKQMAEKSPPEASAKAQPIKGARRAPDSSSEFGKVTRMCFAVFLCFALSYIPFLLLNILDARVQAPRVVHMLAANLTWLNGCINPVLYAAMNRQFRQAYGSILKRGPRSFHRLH

SMILES	target or system	test	test system	conditions	scale	measurement	result
CCCCC1=NC2(CCCC2)C(=O)N1Cc1ccc(-c2ccccc2-c2nnn[nH]2)cc1	Nedd8-cullin1 interaction	neddylation, AlphaScreen		100 µM		inhibition	11.4%
COc1c(-c2ccccc2)oc2cc(O)cc(O)c2c1=O	ESR2	array formation, agonist	GFP-ERβ PRL-HeLa	1 h		EC50	1370 nM
CCC(C(=O)O)c1ccc(N2Cc3ccccc3C2=O)cc1 (stereo not drawn)	Nedd8-cullin1 interaction	neddylation, AlphaScreen		100 µM		inhibition	71.4%
C[C@@H]1O[C@@H](Oc2cc(O)c3c(c2)O[C@H](c2ccc(O)c(O)c2)[C@@H](O)C3=O)[C@H](O)[C@H](O)[C@H]1O	ESR2	array formation, agonist	GFP-ERβ PRL-HeLa	1 h		EC50	1040 nM
COc1ccc(Nc2cnnc3ccc(-c4ccc(S(=O)(=O)N5CCN(C)CC5)cc4)cc23)cc1	Schistosoma mansoni		adult worms	10 µM, 1 h	direction not given	phenotypic severity score	0
CCn1cc(-c2cc(Cn3ccoc3=N)cc3c2CCN([C@@H](C)c2cc(OC)ccn2)C3=O)c(C(F)(F)F)n1	NCI-H661	cell growth, inhibitor		120 h		EC50	18 nM
Cc1ccc(CCNc2cc(=O)[nH]c(=O)[nH]2)cc1	GPR84	cAMP				EC50	12.9 nM
CC1=C(Cn2cc([Si](C)(C)C)nn2)C(=O)c2ccccc2C1=O	Schistosoma mansoni		adult worms	25 µM, 72 h		killing	70.5%
Cc1ccc(N(CC2=NCCN2)c2cccc(O)c2)cc1	Nedd8-cullin1 interaction	neddylation, AlphaScreen		100 µM		inhibition	10.1%
COc1ccc(Nc2cnnc3ccc(-c4cnc(N5CCN(C)CC5)nc4)cc23)cc1Cl	Schistosoma mansoni		adult worms	10 µM, 5 h	direction not given	phenotypic severity score	0
CC1=C(Cc2cn(CCN3CCNCC3)nn2)C(=O)c2ccccc2C1=O	Schistosoma mansoni		adult worms	10 µM, 72 h		killing	50%
O=C(/C=C/C=C/C=C/C1CCCCC1)NC1=C[C@@](O)(/C=C/C=C/C=C/C(=O)NC2=C(O)CCC2=O)[C@@H]2O[C@@H]2C1=O	Hs 294T	cell growth, CellTiter-Glo		78 h		GI50	16900 nM
CC[C@H](C)C(=O)O[C@H]1CCC=C2C=C[C@H](C)[C@H](CC[C@@H]3C[C@@H](O)CC(=O)O3)[C@H]21	Nedd8-cullin1 interaction	neddylation, AlphaScreen		100 µM		inhibition	59.7%
OC(CCN1CCCCC1)(c1ccccc1)C1CC2C=CC1C2 (stereo not drawn)		resting-state EEG	healthy elderly humans	oral, 2 mg, eyes open, LS mean		EEG power, gamma, Fz-Cz	0.5 µV²
O=C(O)CNC(=O)Cc1ccccc1			ventricular cardiomyocytes, C57BL/6 mouse	dose not given, 0.632 s		sarcomere length	1.7 µm
CC1=C(Cn2ccnc2[N+](=O)[O-])C(=O)c2ccccc2C1=O	Schistosoma mansoni		adult worms	25 µM, 48 h		killing	56.9%
CC(C)NCC(O)c1ccc(O)c(O)c1 (stereo not drawn)			ventricular cardiomyocytes, C57BL/6 mouse	dose not given, 0.52 s		sarcomere length	1.5 µm
CSCCCNc1cc(=O)[nH]c(=O)[nH]1	GPR84	cAMP level, agonist	human cells			EC50	22600 ± 3100 nM
Cn1cc(-c2ccc(-c3cncc(Cl)c3N3CCC4(CCNC4=O)CC3)cc2)cn1	COLO 205	gene expression, microarray, refers to: CYR61 mRNA		concentration not given, 6 h	baseline: untreated cells	log2 fold change	1.44
CCn1cc(-c2cc(Cn3ccnc3)cc3c2CCN([C@H](c2cc(OC)ccn2)C2CC2)C3=O)c(C(F)(F)F)n1	NCI-H2126	cell growth, inhibitor		120 h		EC50	> 30000 nM
CC1=C(Cn2cncn2)C(=O)c2ccccc2C1=O	Schistosoma mansoni		adult worms	25 µM, 24 h		killing	41.7%
NC[C@H]1CC[C@H](C(=O)O)CC1	Nedd8-cullin1 interaction	neddylation, AlphaScreen		100 µM		inhibition	31.2%
CC1=C(Cn2cc(CN)nn2)C(=O)c2ccccc2C1=O	Schistosoma mansoni		adult worms	10 µM, 72 h		killing	45.4%
COc1ccccc1N1CCN(CCCNc2cc(=O)n(C)c(=O)n2C)CC1	Nedd8-cullin1 interaction	neddylation, AlphaScreen		100 µM		inhibition	23.5%
CC1=C(Cn2cc(COC3COC3)nn2)C(=O)c2ccccc2C1=O	Schistosoma mansoni		adult worms	25 µM, 48 h		killing	51%
COc1cnc2cccc(N3CCc4c(cc(Cn5ccnc5C)cc4-c4cn(C)nc4C(F)(F)F)C3=O)c2c1	SK-MEL-24	cell growth, inhibitor		120 h		EC50	> 30000 nM
CC1=C(Cn2cc(CNC(=O)OC(C)(C)C)nn2)C(=O)c2ccccc2C1=O	Schistosoma mansoni		adult worms	25 µM, 72 h		killing	55.5%
CCOC(=O)C(C)(C)Oc1ccc(Cl)cc1	Nedd8-cullin1 interaction	neddylation, AlphaScreen		100 µM		inhibition	-402%
CC1=C(Cc2cn(CCN3CCN(C(=O)OC(C)(C)C)CC3)nn2)C(=O)c2ccccc2C1=O	Schistosoma mansoni		adult worms	25 µM, 48 h		killing	46.9%
COc1cc2nc(N3CCN(C(=O)C4COc5ccccc5O4)CC3)nc(N)c2cc1OC (stereo not drawn)	Nedd8-cullin1 interaction	neddylation, AlphaScreen		100 µM		inhibition	-8.2%

For quick reference, copied from above:
SMILES	target or system	test	test system	conditions	scale	measurement	result
CC1=C(Cn2cc([Si](C)(C)C)nn2)C(=O)c2ccccc2C1=O	Schistosoma mansoni		adult worms	25 µM, 72 h		killing	70.5%
COc1ccc(Nc2cnnc3ccc(-c4cnc(N5CCN(C)CC5)nc4)cc23)cc1Cl	Schistosoma mansoni		adult worms	10 µM, 5 h	direction not given	phenotypic severity score	0
